Assay results collected from several papers.
Every numbered part comes from another study and shows a few of its results, in no order.
UniProt Q9HC98, sequence (whole entry, looked up): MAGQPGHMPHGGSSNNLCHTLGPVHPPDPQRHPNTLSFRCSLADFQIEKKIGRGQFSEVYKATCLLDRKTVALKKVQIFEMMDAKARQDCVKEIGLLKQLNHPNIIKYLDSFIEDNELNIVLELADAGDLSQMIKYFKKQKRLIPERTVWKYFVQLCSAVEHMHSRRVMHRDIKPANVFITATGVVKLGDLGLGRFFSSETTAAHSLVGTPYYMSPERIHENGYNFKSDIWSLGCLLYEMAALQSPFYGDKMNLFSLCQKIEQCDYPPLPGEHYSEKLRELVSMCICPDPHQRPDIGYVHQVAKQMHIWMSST
UniProt P00519, sequence (whole entry, unmodified, looked up): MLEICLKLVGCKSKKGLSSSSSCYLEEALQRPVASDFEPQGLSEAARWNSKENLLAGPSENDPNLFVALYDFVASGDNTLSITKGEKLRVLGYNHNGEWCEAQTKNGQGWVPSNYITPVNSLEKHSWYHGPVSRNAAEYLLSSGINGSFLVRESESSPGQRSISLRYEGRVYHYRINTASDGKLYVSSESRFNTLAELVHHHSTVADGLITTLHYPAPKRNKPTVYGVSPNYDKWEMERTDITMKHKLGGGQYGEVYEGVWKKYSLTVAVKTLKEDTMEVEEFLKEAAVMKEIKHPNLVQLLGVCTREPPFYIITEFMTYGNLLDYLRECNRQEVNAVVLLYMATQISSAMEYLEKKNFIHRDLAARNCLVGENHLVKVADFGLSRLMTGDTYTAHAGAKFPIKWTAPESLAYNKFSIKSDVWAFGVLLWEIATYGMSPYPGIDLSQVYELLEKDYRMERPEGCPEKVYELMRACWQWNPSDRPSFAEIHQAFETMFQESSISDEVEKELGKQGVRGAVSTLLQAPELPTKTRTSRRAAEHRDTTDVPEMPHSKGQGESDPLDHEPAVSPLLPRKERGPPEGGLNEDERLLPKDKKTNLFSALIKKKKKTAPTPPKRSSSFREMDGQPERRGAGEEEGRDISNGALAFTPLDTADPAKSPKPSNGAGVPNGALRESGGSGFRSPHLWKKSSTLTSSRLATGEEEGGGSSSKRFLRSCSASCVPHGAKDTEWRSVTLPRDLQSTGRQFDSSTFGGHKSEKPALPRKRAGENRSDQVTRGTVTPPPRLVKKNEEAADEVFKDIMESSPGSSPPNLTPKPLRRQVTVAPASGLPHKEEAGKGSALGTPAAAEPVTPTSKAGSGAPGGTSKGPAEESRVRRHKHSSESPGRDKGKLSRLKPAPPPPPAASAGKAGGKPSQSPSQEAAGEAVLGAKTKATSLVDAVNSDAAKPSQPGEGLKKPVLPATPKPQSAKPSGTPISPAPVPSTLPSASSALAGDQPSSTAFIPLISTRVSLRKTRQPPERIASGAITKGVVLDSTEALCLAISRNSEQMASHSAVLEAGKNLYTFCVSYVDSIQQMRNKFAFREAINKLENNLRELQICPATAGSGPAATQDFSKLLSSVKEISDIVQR
UniProt Q13554, sequence (whole entry, looked up): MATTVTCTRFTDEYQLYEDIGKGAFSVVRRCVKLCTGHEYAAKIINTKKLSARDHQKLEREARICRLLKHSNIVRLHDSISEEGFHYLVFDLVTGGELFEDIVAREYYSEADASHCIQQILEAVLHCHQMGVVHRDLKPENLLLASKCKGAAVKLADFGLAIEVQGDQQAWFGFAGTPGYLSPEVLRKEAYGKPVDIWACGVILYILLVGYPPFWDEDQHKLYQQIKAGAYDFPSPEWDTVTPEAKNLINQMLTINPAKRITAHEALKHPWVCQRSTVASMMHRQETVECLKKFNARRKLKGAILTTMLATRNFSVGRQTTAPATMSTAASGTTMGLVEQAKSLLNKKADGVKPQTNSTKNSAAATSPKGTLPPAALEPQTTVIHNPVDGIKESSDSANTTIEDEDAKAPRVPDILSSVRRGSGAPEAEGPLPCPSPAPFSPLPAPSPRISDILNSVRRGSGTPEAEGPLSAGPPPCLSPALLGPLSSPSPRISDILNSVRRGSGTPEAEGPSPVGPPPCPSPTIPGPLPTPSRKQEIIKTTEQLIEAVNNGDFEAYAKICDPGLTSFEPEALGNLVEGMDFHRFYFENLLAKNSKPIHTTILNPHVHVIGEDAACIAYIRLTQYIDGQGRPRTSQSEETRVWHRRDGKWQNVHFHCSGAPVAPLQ
UniProt Q12866, sequence (whole entry, looked up): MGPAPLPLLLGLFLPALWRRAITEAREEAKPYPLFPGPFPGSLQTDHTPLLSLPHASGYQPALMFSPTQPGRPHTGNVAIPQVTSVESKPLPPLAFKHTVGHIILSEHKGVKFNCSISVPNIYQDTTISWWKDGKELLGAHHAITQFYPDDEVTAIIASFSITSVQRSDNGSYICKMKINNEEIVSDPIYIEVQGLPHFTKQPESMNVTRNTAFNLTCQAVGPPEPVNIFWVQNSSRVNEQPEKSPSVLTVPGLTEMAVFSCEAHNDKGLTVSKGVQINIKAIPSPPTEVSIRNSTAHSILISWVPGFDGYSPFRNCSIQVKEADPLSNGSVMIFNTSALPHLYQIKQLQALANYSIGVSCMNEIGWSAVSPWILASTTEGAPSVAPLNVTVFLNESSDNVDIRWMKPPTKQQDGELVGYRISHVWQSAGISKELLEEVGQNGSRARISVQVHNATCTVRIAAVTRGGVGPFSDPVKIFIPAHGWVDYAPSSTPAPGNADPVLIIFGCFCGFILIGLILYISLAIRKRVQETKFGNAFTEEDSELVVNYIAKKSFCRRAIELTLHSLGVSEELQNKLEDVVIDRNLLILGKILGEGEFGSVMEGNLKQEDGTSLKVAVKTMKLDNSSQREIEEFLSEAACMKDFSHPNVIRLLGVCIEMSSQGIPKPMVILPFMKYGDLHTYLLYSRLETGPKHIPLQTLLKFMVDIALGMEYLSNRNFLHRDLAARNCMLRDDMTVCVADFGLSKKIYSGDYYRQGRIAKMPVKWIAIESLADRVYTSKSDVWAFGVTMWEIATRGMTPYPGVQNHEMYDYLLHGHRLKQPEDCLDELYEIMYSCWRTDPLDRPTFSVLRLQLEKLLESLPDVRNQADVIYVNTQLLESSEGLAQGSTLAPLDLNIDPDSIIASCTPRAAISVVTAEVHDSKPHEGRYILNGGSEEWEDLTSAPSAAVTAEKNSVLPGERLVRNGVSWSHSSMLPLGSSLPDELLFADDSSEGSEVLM
UniProt P36507, sequence (whole entry, looked up): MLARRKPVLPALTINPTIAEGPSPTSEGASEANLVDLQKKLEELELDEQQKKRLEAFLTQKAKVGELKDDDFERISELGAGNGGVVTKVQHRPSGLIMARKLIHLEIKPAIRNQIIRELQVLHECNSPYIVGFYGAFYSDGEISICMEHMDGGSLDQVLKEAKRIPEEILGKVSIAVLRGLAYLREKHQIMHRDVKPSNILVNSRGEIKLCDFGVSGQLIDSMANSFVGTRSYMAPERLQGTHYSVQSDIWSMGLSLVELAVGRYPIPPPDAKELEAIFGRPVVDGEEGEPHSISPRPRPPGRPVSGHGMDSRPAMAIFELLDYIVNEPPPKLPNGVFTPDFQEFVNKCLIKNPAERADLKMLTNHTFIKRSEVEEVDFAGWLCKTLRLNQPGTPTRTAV
UniProt P27361, sequence (whole entry, looked up): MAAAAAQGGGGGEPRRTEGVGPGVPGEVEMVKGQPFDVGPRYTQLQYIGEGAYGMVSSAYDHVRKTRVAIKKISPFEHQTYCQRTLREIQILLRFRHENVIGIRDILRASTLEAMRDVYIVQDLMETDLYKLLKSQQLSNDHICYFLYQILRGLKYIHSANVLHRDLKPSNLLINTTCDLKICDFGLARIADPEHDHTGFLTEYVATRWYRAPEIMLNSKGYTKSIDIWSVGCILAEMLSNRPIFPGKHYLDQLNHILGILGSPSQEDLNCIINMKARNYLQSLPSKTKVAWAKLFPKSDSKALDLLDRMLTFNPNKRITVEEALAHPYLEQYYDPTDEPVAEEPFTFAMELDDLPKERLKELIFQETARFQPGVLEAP
UniProt Q8IYT8, sequence (whole entry, looked up): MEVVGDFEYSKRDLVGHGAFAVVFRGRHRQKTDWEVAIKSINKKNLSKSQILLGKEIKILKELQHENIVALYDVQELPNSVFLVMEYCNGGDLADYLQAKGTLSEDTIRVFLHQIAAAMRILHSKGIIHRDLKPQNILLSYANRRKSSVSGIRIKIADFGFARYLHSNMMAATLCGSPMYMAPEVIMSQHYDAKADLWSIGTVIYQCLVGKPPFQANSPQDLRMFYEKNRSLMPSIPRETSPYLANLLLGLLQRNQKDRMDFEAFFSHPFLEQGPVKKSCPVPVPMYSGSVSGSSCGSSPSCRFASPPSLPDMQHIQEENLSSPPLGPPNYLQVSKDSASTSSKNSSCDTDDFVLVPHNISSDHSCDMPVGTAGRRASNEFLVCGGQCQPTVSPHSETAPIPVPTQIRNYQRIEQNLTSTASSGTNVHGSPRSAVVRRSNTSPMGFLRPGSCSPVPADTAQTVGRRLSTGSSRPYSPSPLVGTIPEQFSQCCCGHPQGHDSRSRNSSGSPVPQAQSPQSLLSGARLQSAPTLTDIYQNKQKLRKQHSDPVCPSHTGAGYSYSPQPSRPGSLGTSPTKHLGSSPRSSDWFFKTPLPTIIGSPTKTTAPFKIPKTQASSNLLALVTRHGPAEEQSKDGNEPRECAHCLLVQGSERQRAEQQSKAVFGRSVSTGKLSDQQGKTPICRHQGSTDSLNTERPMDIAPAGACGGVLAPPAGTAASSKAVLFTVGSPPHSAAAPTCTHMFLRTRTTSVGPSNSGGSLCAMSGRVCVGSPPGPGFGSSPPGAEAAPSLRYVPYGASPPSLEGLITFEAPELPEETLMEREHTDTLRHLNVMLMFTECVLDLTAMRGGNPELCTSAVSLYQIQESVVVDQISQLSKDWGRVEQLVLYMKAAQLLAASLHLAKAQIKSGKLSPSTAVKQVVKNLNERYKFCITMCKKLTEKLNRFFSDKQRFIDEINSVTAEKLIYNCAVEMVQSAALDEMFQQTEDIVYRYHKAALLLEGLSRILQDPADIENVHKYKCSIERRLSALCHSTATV

Sample 1 — method: competition with immobilised ligand; tested at: 1 µM; measurement: remaining binding
Compound: C[C@H](c1ccc(F)cc1)N(Cc1cccc(C(=O)O)c1)C(=O)c1cnc2ccccc2c1
NEK6 (Homo sapiens, UniProt Q9HC98); cell-free assay: 92%
Tyrosine-protein kinase ABL1, phosphorylated (ABL1, Homo sapiens, UniProt P00519); cell-free assay: 100%
Myosin-IIIa (MYO3A, Homo sapiens, UniProt Q8NEV4); binding: 100%
CAMK2B (Homo sapiens, UniProt Q13554); cell-free assay: 100%
RIOK3 (Homo sapiens, UniProt O14730); cell-free assay: 86%
DDR2 (Homo sapiens, UniProt Q16832); cell-free assay: 96%
KIT (Homo sapiens, UniProt P10721, D816H); cell-free assay: 100%

Sample 2 — read-out: enzyme activity; action: inhibitor; tested at: 0.5 µM; baseline: control; measurement: remaining activity
Structure (SMILES): O=C1Cc2c([nH]c3ccc([N+](=O)[O-])cc23)-c2ccccc2N1
FRK (Homo sapiens, UniProt P42685): 97.2%
CSNK1G3 (Homo sapiens, UniProt Q9Y6M4): 90%
MAP2K2 (Homo sapiens, UniProt P36507): 92.5%
NEK1 (Homo sapiens, UniProt Q96PY6): 105%
JAK3 (Homo sapiens, UniProt P52333): 99.7%
MAPK3 (Homo sapiens, UniProt P27361): 93.5%
MERTK (Homo sapiens, UniProt Q12866): 83.1%
NEK6 (Homo sapiens, UniProt Q9HC98): 97.1%
MAP3K14 (Homo sapiens, UniProt Q99558): 132%
MAP3K5 (Homo sapiens, UniProt Q99683): 101%
EPHA3 (Homo sapiens, UniProt P29320): 97.8%
ABL2 (Homo sapiens, UniProt P42684): 54.6%
TEK (Homo sapiens, UniProt Q02763): 92.1%
ULK2 (Homo sapiens, UniProt Q8IYT8): 72.7%

Sample 3 — method: PRP chromatography; notes: linear fit, 1 mL; measurement: logD 1,9-decadiene/water
CC(C)C[C@@H]1NC(=O)[C@@H](C)NC(=O)[C@@H](CC(C)C)NC(=O)[C@@H](CC(C)C)NC(=O)[C@H](C(C)C)NC(=O)[C@H](CC(C)C)NC(=O)[C@@H](CC(C)C)NC1=O: 0.51 log units
CC(C)C[C@@H]1NC(=O)[C@H](C)NC(=O)[C@H](C)NC(=O)[C@@H](CC(C)C)NC(=O)[C@H](C)NC(=O)[C@H](CC(C)C)NC(=O)[C@H](CC(C)C)NC1=O: -1.68 log units
CC(C)C[C@@H]1NC(=O)[C@H](C(C)C)NC(=O)[C@H](CCC(=O)N2CCCC2)NC(=O)[C@H](CCC(=O)N2CCCC2)NC(=O)[C@@H](CCC(=O)N2CCCC2)NC(=O)[C@H](CC(C)C)NC(=O)[C@@H](CC(C)C)NC1=O: -4.42 log units
CC(C)C[C@@H]1NC(=O)[C@H](CC(C)C)NC(=O)[C@H](CC(C)C)NC(=O)[C@H](CC(C)C)NC(=O)[C@H](C(C)C)NC(=O)[C@H](Cc2cscn2)NC(=O)[C@H](C)NC1=O: -1.84 log units
CC(C)C[C@@H]1NC(=O)[C@H](CC(C)C)NC(=O)[C@@H](CC(C)C)NC(=O)[C@@H](CC(C)C)NC(=O)[C@@H](Cc2cscn2)NC(=O)[C@H](CC(C)C)NC(=O)[C@@H](CC(C)C)NC1=O: 1.57 log units
CC(C)C[C@@H]1NC(=O)[C@H](C)NC(=O)[C@@H](CC(C)C)NC(=O)[C@@H](CC(C)C)NC(=O)[C@@H](CCC(=O)N2CCCC2)NC(=O)[C@H](CC(C)C)NC(=O)[C@@H](CC(C)C)NC1=O: 0.0568 log units
CC(C)C[C@@H]1NC(=O)[C@H](CC(C)C)NC(=O)[C@@H](CC(C)C)NC(=O)[C@H](CC(C)C)NC(=O)[C@H](C(C)C)NC(=O)[C@H](C)NC(=O)[C@H](C)NC1=O: -0.684 log units

Sample 4 — tested at: 1 µM; measurement: remaining binding
Compound: COc1ccc2[nH]c3c4[nH]c5ccc(OC)cc5c4c4c(c3c2c1)C(=O)NC4=O
ABL1 (Homo sapiens, UniProt P00519, Q252H): 36%
CSNK1E (Homo sapiens, UniProt P49674); binding, competition with immobilised ligand: 52%
MINK1 (Homo sapiens, UniProt Q8N4C8); binding, competition with immobilised ligand: 1.7%
Non-receptor tyrosine-protein kinase TYK2, JH1 (TYK2, Homo sapiens, UniProt P29597); cell-free assay, competition with immobilised ligand: 87%
STK35 (Homo sapiens, UniProt Q8TDR2); binding, competition with immobilised ligand: 80%

For quick reference, copied from above (sample 3):
CC(C)C[C@@H]1NC(=O)[C@H](CC(C)C)NC(=O)[C@@H](CC(C)C)NC(=O)[C@@H](CC(C)C)NC(=O)[C@@H](Cc2cscn2)NC(=O)[C@H](CC(C)C)NC(=O)[C@@H](CC(C)C)NC1=O: 1.57 log units
CC(C)C[C@@H]1NC(=O)[C@H](C)NC(=O)[C@@H](CC(C)C)NC(=O)[C@@H](CC(C)C)NC(=O)[C@@H](CCC(=O)N2CCCC2)NC(=O)[C@H](CC(C)C)NC(=O)[C@@H](CC(C)C)NC1=O: 0.0568 log units
